Assay results of several laboratories.
Every numbered part comes from another study and shows a few of its results, in no order. Values joined by “and” are separate records of one study, mostly repeats; a detail may differ.
Chain of UniProt P49760 (whole entry, looked up): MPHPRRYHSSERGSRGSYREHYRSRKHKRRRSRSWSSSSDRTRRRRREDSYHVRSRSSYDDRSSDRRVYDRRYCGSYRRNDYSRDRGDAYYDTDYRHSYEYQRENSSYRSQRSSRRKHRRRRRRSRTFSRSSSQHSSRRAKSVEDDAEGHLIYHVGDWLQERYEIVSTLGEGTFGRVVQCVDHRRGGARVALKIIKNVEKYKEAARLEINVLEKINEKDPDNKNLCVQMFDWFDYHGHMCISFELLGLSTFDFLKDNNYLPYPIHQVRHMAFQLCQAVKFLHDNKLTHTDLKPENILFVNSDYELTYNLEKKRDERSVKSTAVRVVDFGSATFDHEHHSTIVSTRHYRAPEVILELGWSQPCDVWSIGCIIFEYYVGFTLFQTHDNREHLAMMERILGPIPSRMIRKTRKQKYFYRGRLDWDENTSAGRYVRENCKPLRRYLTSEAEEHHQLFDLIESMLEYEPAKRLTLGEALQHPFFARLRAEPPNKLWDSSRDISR
Chain of UniProt P51812 (whole entry, looked up): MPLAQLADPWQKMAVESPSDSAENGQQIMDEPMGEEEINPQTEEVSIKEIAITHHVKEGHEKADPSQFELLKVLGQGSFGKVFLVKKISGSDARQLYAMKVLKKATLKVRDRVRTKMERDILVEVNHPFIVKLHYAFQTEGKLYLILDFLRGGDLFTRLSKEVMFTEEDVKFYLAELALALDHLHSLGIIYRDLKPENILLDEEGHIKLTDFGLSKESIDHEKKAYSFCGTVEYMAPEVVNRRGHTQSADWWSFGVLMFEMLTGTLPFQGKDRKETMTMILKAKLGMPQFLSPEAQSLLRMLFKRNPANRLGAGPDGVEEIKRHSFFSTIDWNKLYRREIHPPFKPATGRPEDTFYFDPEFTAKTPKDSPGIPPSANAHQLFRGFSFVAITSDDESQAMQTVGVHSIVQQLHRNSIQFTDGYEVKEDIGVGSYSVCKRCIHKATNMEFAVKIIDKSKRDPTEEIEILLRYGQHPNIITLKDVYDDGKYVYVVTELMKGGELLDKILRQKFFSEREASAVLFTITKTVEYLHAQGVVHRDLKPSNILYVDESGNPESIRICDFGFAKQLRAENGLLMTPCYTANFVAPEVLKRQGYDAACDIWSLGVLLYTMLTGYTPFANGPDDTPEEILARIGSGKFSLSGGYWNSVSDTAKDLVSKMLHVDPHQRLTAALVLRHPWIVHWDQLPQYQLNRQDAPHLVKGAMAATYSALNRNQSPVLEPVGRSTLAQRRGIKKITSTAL
Chain of UniProt P68400 (whole entry, looked up): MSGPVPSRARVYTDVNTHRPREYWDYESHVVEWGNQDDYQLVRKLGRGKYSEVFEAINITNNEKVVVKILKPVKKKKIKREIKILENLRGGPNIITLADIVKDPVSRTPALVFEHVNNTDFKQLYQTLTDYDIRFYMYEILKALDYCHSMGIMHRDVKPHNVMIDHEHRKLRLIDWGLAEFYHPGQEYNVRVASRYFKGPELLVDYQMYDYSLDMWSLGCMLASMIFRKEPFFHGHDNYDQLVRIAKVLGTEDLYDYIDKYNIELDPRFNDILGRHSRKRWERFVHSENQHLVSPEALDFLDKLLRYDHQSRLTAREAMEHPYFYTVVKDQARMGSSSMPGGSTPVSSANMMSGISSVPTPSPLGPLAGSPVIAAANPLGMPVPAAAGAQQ
Chain of UniProt Q9Y616 (whole entry, looked up): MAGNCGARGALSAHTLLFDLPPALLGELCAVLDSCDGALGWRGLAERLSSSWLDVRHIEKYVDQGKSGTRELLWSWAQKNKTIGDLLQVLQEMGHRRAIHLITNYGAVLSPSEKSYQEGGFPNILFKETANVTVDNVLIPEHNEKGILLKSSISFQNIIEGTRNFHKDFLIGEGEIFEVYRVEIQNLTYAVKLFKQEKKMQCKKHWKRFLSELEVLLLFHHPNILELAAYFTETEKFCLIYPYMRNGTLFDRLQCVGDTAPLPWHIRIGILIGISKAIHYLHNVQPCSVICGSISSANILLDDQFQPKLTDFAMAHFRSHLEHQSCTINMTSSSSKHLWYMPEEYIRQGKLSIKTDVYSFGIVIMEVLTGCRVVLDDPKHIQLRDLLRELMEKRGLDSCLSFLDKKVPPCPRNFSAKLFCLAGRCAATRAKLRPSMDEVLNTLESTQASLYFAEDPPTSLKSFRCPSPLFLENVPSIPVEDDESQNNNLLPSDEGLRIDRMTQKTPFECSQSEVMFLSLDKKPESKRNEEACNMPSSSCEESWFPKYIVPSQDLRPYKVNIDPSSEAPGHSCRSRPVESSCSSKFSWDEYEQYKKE
Chain of UniProt Q13153 (whole entry, looked up): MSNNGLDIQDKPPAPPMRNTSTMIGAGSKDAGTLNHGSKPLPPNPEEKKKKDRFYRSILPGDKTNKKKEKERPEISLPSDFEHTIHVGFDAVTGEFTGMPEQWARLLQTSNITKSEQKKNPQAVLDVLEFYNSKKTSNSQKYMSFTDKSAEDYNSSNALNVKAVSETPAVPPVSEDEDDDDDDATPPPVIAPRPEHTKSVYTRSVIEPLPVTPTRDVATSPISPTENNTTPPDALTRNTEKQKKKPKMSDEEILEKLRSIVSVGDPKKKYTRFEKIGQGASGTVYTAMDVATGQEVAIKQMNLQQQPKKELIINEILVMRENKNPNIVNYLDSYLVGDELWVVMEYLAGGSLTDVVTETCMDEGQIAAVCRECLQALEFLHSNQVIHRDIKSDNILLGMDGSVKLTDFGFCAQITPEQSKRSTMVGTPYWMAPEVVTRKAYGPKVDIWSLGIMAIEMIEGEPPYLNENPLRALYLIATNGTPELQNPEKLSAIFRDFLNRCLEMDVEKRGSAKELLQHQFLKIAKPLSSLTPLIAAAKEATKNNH
Chain of UniProt O15146 (whole entry, looked up): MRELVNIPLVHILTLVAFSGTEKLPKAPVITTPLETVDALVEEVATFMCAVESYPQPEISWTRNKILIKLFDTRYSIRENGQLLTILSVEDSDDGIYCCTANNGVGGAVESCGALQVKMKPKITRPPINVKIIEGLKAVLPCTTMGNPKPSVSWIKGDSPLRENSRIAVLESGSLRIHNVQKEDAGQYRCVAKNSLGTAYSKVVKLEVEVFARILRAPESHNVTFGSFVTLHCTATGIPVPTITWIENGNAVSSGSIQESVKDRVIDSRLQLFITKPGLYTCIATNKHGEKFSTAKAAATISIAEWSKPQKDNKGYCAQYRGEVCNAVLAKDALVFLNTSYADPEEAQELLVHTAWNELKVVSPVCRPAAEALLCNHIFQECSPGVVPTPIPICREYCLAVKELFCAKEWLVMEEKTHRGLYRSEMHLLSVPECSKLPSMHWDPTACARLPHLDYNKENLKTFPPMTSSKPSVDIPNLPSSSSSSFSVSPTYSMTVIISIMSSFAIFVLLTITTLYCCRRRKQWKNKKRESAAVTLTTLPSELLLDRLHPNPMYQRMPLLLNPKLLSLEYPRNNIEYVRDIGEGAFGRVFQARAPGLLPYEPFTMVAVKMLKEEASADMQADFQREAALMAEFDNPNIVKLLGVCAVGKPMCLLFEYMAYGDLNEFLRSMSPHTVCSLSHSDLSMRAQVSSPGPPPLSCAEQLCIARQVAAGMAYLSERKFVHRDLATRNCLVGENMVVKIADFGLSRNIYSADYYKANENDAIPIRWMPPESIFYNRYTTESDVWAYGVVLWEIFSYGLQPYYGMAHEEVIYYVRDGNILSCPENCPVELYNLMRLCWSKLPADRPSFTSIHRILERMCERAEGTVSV
Chain of UniProt Q9H0K1 (whole entry, looked up): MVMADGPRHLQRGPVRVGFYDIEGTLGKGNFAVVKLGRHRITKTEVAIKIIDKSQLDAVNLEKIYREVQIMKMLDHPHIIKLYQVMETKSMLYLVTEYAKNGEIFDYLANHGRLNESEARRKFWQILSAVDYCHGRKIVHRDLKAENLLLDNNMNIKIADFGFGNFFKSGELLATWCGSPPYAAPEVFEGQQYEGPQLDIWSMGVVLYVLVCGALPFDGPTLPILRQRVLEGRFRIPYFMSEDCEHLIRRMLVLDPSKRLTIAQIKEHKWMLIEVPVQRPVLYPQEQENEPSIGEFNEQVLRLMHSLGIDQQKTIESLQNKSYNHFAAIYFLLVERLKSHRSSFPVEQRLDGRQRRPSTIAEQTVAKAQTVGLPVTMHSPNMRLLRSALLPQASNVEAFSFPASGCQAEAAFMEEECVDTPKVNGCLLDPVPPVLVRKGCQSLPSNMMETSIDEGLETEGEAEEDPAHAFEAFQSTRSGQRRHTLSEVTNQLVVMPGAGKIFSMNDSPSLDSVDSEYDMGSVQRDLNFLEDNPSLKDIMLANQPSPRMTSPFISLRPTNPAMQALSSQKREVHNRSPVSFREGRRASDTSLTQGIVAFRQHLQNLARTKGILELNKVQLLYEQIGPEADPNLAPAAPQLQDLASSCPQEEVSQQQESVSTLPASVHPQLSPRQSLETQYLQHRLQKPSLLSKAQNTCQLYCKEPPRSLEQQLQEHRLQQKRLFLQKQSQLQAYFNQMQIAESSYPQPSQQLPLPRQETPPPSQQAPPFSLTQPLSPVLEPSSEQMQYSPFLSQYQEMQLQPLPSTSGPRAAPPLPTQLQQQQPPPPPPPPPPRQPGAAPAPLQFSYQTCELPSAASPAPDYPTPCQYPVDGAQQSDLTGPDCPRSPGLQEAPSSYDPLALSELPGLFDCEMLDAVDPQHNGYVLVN
Chain of UniProt Q14012 (whole entry, looked up): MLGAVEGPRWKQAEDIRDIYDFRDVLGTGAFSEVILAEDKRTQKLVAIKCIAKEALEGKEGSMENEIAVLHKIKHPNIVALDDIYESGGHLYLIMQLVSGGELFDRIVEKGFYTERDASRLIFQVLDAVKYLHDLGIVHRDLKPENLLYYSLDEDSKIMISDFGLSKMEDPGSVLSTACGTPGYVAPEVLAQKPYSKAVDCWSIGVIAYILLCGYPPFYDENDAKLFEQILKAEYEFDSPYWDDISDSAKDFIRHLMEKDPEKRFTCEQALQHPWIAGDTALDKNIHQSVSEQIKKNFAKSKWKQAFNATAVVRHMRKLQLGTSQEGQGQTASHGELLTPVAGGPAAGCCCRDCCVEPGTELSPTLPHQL

Set 1 — species: human; sample: microsomes or S9; concentration: 2 µM; time: 0.5 h
SMILES | remaining compound
CCc1ccc(N2C(=O)CN(S(C)(=O)=O)CC2(C)C(=O)NCc2ccc(F)cc2)cc1 (centres unmarked) | 19.3%
O=C1NC2c3ccccc3C(=O)N2c2ccccc21 (centres unmarked) | 50.2%
CC(C)C(NCc1cc(=O)n(C)c(=O)n1C)c1ccc(C2CCCCC2)cc1 (centres unmarked) | 0.333%
Cc1cc(Nc2cnccn2)cc(C2CCCN2C(=O)CC2(O)CCCCC2)n1 (centres unmarked) | 15.3%
CN1CC[C@H]2CN(C(=O)c3c4c(nn3C)CCCC4)C[C@H]21 | > 100%
Cc1c2cnn(CC(=O)NC3CCCc4ccccc43)c(=O)c2c(C)n1Cc1cccc(Cl)c1 (centres unmarked) | 0.685%

Set 2 — SMILES: CCOc1ccc(Nc2c3c(nc4ccccc24)CCC3)cc1; organism: Leishmania infantum chagasi; technique: qPCR; species: golden hamster chronic infection; sample: liver; route: oral; dose: 10 mg/kg/day; time: 10 days
test | threshold cycle
refers to: IL4 mRNA | 24 cycles and 24.4 cycles and 27.5 cycles and 24.3 cycles and 24.7 cycles and 23.9 cycles
refers to: IL10 mRNA | 35.3 cycles and 35.1 cycles and 36.2 cycles and 34.8 cycles and 37.1 cycles
refers to: TNF mRNA | 25.2 cycles and 24.6 cycles and 28 cycles and 24.9 cycles and 24.8 cycles and 24.4 cycles

Set 3 — Structure (SMILES): O=C1Nc2ccccc2/C1=C\c1c(Cl)[nH]c2ccccc12; read-out: enzyme activity; mode: inhibitor; concentration: 0.5 µM; reference: control
target | remaining activity
SRPK1 (Homo sapiens, UniProt Q96SB4) | 94.2%
CAMK1 (Homo sapiens, UniProt Q14012) | 106%
SGK2 (Homo sapiens, UniProt Q9HBY8) | 103%
EPHA2 (Homo sapiens, UniProt P29317) | 97.3%
CSNK1E (Homo sapiens, UniProt P49674) | 87.8%
IGF1R (Homo sapiens, UniProt P08069) | 105%
RPS6KA3 (Homo sapiens, UniProt P51812) | 82.9%
CAMKK1 (Homo sapiens, UniProt Q8N5S9) | 116%
PRKCZ (Homo sapiens, UniProt Q05513) | 103%
CLK2 (Homo sapiens, UniProt P49760) | 92.7%
PAK1 (Homo sapiens, UniProt Q13153) | 92.8%
TEC (Homo sapiens, UniProt P42680) | 124%
CLK1 (Homo sapiens, UniProt P49759) | 103%
FLT1 (Homo sapiens, UniProt P17948) | 88.6%
MUSK (Homo sapiens, UniProt O15146) | 96.4%
MAP3K20 (Homo sapiens, UniProt Q9NYL2) | 99.2%
PAK6 (Homo sapiens, UniProt Q9NQU5) | 101%
JAK1 (Homo sapiens, UniProt P23458) | 96.6%
CSNK1D (Homo sapiens, UniProt P48730) | 90.5%
Cyclin-dependent kinase 2, with cyclin E (CDK2, Homo sapiens, UniProt P24941) | 79.9%
SIK2 (Homo sapiens, UniProt Q9H0K1) | 103%
PRKCQ (Homo sapiens, UniProt Q04759) | 91.7%

Set 4 — read-out: cell-free assay; technique: competition with immobilised ligand; concentration: 1 µM
SMILES: CCS(=O)(=O)c1cc2cc(C[C@@](O)(CC(C)(C)c3ccc(F)cc3C(N)=O)C(F)(F)F)[nH]c2cn1
target | remaining binding [%]
SGK1 (Homo sapiens, UniProt O00141) | 79
BMPR1A (Homo sapiens, UniProt P36894) | 100
PIK3CA (Homo sapiens, UniProt P42336) | 100
CSNK2A1 (Homo sapiens, UniProt P68400) | 75
RIPK4 (Homo sapiens, UniProt P57078) | 100
IRAK3 (Homo sapiens, UniProt Q9Y616) | 67
PIP5K1A (Homo sapiens, UniProt Q99755) | 100
Tyrosine-protein kinase ABL1, non-phosphorylated (ABL1, Homo sapiens, UniProt P00519) | 99
MAPK7 (Homo sapiens, UniProt Q13164) | 81
MAK (Homo sapiens, UniProt P20794) | 100
CLK2 (Homo sapiens, UniProt P49760) | 100
NEK3 (Homo sapiens, UniProt P51956) | 100

Single results of other studies
SMILES | cell line | setting | endpoint | value
CC(C)OC(=O)C(C(=O)OC(C)C)=C1SC=CS1 | HaCaT | 100 µM, 60 h | viability | 16.4%

Excerpt of the above (set 4):
target | remaining binding [%]
CSNK2A1 (Homo sapiens, UniProt P68400) | 75
RIPK4 (Homo sapiens, UniProt P57078) | 100
PIK3CA (Homo sapiens, UniProt P42336) | 100
IRAK3 (Homo sapiens, UniProt Q9Y616) | 67
SGK1 (Homo sapiens, UniProt O00141) | 79
PIP5K1A (Homo sapiens, UniProt Q99755) | 100
